Results from different studies.
Numbered parts are unrelated; each lists some results of a single study.
UniProt Q96L34, sequence (whole entry, looked up): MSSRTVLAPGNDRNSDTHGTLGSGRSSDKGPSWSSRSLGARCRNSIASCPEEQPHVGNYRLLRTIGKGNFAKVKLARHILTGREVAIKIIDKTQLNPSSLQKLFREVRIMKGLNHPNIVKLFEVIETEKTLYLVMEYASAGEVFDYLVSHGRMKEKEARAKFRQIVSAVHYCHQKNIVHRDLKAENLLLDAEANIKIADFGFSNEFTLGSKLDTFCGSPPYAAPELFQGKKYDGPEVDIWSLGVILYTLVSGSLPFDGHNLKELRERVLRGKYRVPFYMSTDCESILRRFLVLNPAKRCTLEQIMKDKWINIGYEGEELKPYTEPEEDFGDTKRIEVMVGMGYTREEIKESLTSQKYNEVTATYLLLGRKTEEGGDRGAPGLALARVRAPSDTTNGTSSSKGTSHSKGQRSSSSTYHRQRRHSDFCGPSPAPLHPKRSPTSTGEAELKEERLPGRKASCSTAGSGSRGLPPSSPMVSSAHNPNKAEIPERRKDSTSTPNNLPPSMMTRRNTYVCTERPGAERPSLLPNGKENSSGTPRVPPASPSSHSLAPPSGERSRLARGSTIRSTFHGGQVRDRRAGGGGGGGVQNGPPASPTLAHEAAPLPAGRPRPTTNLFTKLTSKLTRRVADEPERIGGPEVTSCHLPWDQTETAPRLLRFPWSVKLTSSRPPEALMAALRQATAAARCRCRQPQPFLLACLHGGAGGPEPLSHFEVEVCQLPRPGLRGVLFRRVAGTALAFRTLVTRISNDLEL
UniProt O95382, sequence (whole entry, looked up): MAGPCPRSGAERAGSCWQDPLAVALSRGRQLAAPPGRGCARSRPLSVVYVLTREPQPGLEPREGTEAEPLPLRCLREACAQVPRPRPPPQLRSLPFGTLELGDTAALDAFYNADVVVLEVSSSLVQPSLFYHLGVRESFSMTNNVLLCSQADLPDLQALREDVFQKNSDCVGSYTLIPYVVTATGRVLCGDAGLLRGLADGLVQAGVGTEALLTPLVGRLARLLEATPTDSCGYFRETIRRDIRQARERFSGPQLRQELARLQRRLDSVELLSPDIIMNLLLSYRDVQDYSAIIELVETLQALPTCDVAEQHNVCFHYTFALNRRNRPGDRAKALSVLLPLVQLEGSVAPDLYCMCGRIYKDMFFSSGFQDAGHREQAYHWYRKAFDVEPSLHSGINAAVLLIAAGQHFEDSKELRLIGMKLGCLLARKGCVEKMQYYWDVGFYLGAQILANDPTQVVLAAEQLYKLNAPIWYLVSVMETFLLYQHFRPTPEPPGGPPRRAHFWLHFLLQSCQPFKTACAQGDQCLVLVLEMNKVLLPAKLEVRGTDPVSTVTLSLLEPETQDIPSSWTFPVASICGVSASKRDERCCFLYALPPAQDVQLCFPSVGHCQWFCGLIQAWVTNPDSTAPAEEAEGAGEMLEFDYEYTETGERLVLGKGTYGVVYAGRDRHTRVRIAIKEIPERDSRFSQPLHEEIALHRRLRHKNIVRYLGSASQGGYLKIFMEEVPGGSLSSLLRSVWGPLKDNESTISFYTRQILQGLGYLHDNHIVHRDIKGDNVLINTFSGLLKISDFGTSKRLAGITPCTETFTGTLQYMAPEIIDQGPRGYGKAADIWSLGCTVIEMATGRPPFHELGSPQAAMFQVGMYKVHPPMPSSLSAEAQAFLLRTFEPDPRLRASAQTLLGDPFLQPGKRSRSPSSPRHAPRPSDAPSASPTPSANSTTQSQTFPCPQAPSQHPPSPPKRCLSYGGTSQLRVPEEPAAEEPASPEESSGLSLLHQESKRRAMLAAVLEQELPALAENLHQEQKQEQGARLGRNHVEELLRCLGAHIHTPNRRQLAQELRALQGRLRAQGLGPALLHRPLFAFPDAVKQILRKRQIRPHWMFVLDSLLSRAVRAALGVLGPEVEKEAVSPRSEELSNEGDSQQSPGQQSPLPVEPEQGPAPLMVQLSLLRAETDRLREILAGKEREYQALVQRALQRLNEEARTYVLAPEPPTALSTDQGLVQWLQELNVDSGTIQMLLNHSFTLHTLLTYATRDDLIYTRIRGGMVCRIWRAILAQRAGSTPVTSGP
UniProt P29322, sequence (whole entry, looked up): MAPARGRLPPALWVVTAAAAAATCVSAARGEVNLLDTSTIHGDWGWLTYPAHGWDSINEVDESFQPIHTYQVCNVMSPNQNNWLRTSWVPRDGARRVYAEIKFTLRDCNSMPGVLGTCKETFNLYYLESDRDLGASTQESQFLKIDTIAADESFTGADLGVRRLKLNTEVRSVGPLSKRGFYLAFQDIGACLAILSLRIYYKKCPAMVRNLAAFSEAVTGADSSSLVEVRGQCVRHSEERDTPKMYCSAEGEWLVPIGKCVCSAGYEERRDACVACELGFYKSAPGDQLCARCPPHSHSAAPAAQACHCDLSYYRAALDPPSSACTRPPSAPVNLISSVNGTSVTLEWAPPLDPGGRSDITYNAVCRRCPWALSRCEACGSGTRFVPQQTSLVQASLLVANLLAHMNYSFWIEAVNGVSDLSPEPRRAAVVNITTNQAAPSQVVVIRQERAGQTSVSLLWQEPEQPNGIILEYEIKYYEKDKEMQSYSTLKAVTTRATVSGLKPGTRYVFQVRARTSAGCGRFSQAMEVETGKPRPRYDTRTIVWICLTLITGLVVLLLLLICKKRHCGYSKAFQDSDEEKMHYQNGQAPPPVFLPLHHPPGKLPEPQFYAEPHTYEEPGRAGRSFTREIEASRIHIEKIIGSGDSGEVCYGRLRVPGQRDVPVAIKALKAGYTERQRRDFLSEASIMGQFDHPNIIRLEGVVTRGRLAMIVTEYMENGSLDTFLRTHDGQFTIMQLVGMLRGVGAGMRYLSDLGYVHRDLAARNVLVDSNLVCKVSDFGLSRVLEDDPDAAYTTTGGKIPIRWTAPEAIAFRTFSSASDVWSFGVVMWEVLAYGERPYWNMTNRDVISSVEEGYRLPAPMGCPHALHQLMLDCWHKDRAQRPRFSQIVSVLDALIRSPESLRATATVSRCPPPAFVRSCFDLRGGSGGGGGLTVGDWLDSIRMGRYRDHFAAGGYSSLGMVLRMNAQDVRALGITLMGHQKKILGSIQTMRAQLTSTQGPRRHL
UniProt O75716, sequence (whole entry, looked up): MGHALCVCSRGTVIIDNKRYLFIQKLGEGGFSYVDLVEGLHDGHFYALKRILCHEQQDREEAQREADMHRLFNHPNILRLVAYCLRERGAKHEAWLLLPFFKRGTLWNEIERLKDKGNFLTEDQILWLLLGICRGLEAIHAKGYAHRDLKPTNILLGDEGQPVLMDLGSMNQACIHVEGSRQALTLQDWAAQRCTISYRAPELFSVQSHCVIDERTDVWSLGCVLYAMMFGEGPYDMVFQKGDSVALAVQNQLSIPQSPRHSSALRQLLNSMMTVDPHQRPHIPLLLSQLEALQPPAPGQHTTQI
UniProt Q86YV6, sequence (whole entry, looked up): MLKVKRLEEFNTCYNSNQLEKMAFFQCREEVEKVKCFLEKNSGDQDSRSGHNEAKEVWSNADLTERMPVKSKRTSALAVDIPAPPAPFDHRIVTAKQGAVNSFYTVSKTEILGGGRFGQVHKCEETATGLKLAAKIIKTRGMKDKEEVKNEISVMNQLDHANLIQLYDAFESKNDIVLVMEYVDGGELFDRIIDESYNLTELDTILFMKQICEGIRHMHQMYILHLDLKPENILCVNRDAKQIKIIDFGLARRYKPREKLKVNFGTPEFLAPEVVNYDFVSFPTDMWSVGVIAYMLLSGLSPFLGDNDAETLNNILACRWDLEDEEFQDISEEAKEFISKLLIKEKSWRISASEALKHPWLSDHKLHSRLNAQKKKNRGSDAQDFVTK

Sample 1 — concentration: 1 µM
Structure (SMILES): C[C@@H]1CN(c2cc(-c3nn(C)c4ccc(OC5(C)CC5)cc34)ncn2)C[C@H](C)O1
| target | effect on | method | remaining binding [%] |
| --- | --- | --- | --- |
| MARK4 (Homo sapiens, UniProt Q96L34) | cell-free assay | competition with immobilised ligand | 100 |
| NEK3 (Homo sapiens, UniProt P51956) | cell-free assay | competition with immobilised ligand | 99 |
| MYLK4 (Homo sapiens, UniProt Q86YV6) | cell-free assay | competition with immobilised ligand | 100 |
| MAP3K6 (Homo sapiens, UniProt O95382) | cell-free assay | competition with immobilised ligand | 76 |
| MAP3K1 (Homo sapiens, UniProt Q13233) | cell-free assay | competition with immobilised ligand | 92 |
| FLT3 (Homo sapiens, UniProt P36888, D835V/ITD) | cell-free assay | competition with immobilised ligand | 88 |
| AKT2 (Homo sapiens, UniProt P31751) | cell-free assay | competition with immobilised ligand | 89 |
| TXK (Homo sapiens, UniProt P42681) | binding | competition with immobilised ligand | 100 |
| CDK19 (Homo sapiens, UniProt Q9BWU1) |  | competition binding | 92 |
| MET (Homo sapiens, UniProt P08581, Y1235D) | cell-free assay | competition with immobilised ligand | 87 |
| EPHA8 (Homo sapiens, UniProt P29322) | cell-free assay | competition with immobilised ligand | 100 |
| MYLK2 (Homo sapiens, UniProt Q9H1R3) | cell-free assay | competition with immobilised ligand | 87 |
| Non-receptor tyrosine-protein kinase TYK2, JH1 (TYK2, Homo sapiens, UniProt P29597) | cell-free assay | competition with immobilised ligand | 51 |
| STK16 (Homo sapiens, UniProt O75716) | cell-free assay | competition with immobilised ligand | 100 |

Sample 2 — action: antagonist
Target: Beta-1 adrenergic receptor (ADRB1, Homo sapiens, UniProt P08588)
UniProt P08588, sequence (whole entry, looked up): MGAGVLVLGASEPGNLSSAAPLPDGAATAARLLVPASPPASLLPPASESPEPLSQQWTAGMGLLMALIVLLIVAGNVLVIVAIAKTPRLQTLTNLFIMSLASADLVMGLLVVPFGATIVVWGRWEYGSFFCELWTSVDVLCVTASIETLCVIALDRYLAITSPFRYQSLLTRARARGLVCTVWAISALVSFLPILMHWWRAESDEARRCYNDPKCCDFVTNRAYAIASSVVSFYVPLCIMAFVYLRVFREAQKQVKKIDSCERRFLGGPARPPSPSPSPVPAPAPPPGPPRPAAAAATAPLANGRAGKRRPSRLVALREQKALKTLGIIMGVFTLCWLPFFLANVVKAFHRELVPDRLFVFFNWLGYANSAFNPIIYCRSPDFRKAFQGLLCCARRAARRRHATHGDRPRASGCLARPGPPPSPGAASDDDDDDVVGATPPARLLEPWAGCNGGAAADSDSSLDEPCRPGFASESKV
| Structure (SMILES) | IC50 [µM] |
| --- | --- |
| OC(CN1CCC(Cc2ccc(F)cc2)CC1)c1ccc(Cl)cc1 (centres unmarked) | ≥ 100 |
| C[S+](=O)([O-])Nc1ccc(OC[C@@H](O)CNCCc2ccc(Cl)c(Cl)c2)cc1 | ≥ 100 |
| CN1CCC(Cn2ccc3c(N4CCOCC4)nc(-c4cccc5[nH]ccc45)cc32)CC1 | ≥ 100 |
| N#Cc1cc2cc(CN3CCC(Nc4ncnc5sc(CC(F)(F)F)cc45)CC3)c(O)cc2n1Cc1cn[nH]c1 | 35.5 |
| CNc1nc(-c2ccccc2)c(-c2ccccc2)s1 | ≥ 100 |
| O=c1cc(N2CCNCC2)nc2sc3ccc4ccccc4c3n12 | ≥ 100 |
| Cc1noc2c(-c3cccc(O)c3)cc(-c3cccs3)nc12 | ≥ 100 |
| COc1ccccc1N1CCN(c2ncnc3c2CN(C)CC3)CC1 | ≥ 100 |
| CC(C)CN(C)C(=O)c1cc(-c2cnn(C(C)C)c2)nc2ccc(F)cc12 | ≥ 100 |
| Cc1cc2c(F)c(Oc3ncnn4cc(OCC(C)O)c(C)c34)ccc2[nH]1 (centres unmarked) | ≥ 100 |
| CC1CCN(Cc2ccccc2OCC(O)CN2CCSCC2)CC1 (centres unmarked) | ≥ 100 |
| c1cc2nnc(C3CCC3)n2nc1N1CCCNCC1 | ≥ 100 |

Sample 3 — effect on: enzyme activity; action: inhibitor; concentration: 0.5 µM; baseline: control
Target: Tyrosine-protein kinase HCK (HCK, Homo sapiens, UniProt P08631)
UniProt P08631, sequence (whole entry, looked up): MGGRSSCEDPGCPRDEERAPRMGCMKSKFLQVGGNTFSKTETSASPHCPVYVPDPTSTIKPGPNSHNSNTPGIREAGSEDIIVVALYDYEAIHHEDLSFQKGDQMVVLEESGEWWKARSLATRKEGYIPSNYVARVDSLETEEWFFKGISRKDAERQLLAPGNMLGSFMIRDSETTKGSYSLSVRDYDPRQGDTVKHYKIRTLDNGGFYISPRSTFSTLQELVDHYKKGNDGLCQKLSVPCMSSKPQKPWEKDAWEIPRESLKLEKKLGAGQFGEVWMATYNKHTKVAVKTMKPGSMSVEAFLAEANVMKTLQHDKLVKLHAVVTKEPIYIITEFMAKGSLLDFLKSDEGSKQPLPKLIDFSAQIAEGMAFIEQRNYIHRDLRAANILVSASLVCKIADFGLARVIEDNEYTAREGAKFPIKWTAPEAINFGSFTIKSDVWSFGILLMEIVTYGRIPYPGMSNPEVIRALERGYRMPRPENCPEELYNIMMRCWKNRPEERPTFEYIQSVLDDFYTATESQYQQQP
| Compound | remaining activity |
| --- | --- |
| O=C(c1cc2cc(O)ccc2[nH]1)c1cc2cc(O)ccc2[nH]1 | 51.2% |
| c1ccc(-c2n[nH]c3c2oc2ccccc23)cc1 | 111% |
| Cc1cc(Nc2cc(N3CCN(C)CC3)nc(Sc3ccc(NC(=O)C4CC4)cc3)n2)[nH]n1 | 82.7% |
| CCCNC(=O)Nc1ccc(Oc2ncnc3cc(OC)c(OC)cc23)cc1Cl | 88.7% |
| Oc1cccc(-c2nc(N3CCOCC3)c3oc4ncccc4c3n2)c1 | 91.9% |
| O=C1Nc2ccccc2/C1=C\c1c(Cl)[nH]c2ccccc12 | 98.5% |
| O=C1Nc2ccc(Br)cc2/C1=C/c1cc2c([nH]1)CCCC2 | 88.5% |
| O=C1NC(=O)c2c1c1c3ccccc3[nH]c1c1[nH]c3cc(Br)ccc3c21 | 92.4% |
| O=C1Cc2c([nH]c3ccc(Br)cc23)-c2ccccc2N1 | 85.5% |
| O=Nc1c(-c2c(O)[nH]c3cc(Br)ccc23)[nH]c2ccccc12 | 13.3% |

Sample 4 — sample: EL4 tumour; dose: dose not given; baseline: vehicle
SMILES: CC(=O)N[C@@H](Cc1c[nH]c2ccccc12)C(=O)N[C@@H](CCC(=O)C=[N+]=[N-])C(=O)OC(C)C
| method | measured | host | log2 fold change |
| --- | --- | --- | --- |
|  | catechol sulfate | mouse, EL4 tumour-bearing | 1.07 |
|  | nicotinamide | mouse, EL4 tumour-bearing | -0.316 |
|  | carnosine | mouse, EL4 tumour-bearing | 2.26 |
|  | arabonate/xylonate | mouse, EL4 tumour-bearing | 1.4 |
|  | gulonate* | mouse, EL4 tumour-bearing | 0.426 |
|  | galactose 1-phosphate | mouse, EL4 tumour-bearing | 0.82 |
|  | isocitrate | mouse, EL4 tumour-bearing | -0.243 |
|  | 3'-AMP | mouse, EL4 tumour-bearing | 1.65 |
| metabolomics | 2-methylbutyrylcarnitine (C5) | mouse | -0.515 |
| metabolomics | uridine 3'-monophosphate | mouse | 1.74 |
| metabolomic profiling | tartronate (hydroxymalonate) | Mus musculus | 0.967 |

For quick reference, copied from above (sample 4):
| method | measured | host | log2 fold change |
| --- | --- | --- | --- |
|  | arabonate/xylonate | mouse, EL4 tumour-bearing | 1.4 |
|  | gulonate* | mouse, EL4 tumour-bearing | 0.426 |
|  | galactose 1-phosphate | mouse, EL4 tumour-bearing | 0.82 |
|  | isocitrate | mouse, EL4 tumour-bearing | -0.243 |
|  | 3'-AMP | mouse, EL4 tumour-bearing | 1.65 |
| metabolomics | 2-methylbutyrylcarnitine (C5) | mouse | -0.515 |
| metabolomics | uridine 3'-monophosphate | mouse | 1.74 |
